Measured values of several laboratories.
Protocols differ between the studies behind these lines. Values joined by “and” are separate records of one study, mostly repeats; a detail may differ. Numbers after ± are the reported error. Converted amounts (≈) assume the structure as drawn.

For `N=C(N)c1ccc(OCc2ccccc2COc2ccc(C(=N)N)cc2)cc1`, “MIC in combination” read 25 µg/mL (Escherichia coli; ATCC 25922; concentration not given, added: rifampicin).
`Cc1ccc(C(=O)C#Cc2ccc(F)c(F)c2)cc1` gave a biofilm formation of 53% (Pseudomonas aeruginosa; static biofilm; PA14; 10 µM, 24 h, static; reference: DMSO).
The post-antibiotic effect of `CN[C@H](CC(C)C)C(=O)N[C@H]1C(=O)N[C@@H](CC(N)=O)C(=O)N[C@H]2C(=O)N[C@H]3C(=O)N[C@H](C(=O)N[C@H](C(=O)O)c4cc(O)cc(O)c4-c4cc3ccc4O)[C@H](O)c3ccc(c(Cl)c3)Oc3cc2cc(c3O[C@@H]2O[C@H](CO)[C@@H](O)[C@H](O)[C@H]2O[C@H]2C[C@](C)(N)[C@H](O)[C@H](C)O2)Oc2ccc(cc2Cl)[C@H]1O` is reported as 0.276 h (Staphylococcus aureus; MRSA ATCC 43300; 1 × MIC).
`COc1ccc(-c2noc(-c3ccc(CN)cc3)n2)cc1.Cl` — result for activity: “inactive” (Clostridioides difficile; spore germination; ATCC 43255; 45 µM).
For `S=C(S)N1CCCC1`, the EC90 was 30 µM (Toxoplasma gondii; parasite growth; HFF, bradyzoite, alkaline-induced).
`CCc1nn(C)c2nc(-c3ccc(C(=O)O)cc3)nc(NCc3ccc(F)cc3)c12` has an inhibition of 88.8% and 89.1% (Cryptosporidium parvum; parasite growth, immunofluorescence imaging; HCT-8, Iowa; 18 µM).
`OC[C@H]1O[C@@H](O[C@@H]2[C@@H](O)[C@H](O[C@@H]3[C@@H](O)[C@H](O[C@@H]4[C@@H](O)[C@H](O[C@H]5[C@H](O)[C@@H](CO)OC(O)[C@@H]5O)O[C@H](CO)[C@H]4O)O[C@H](CO)[C@H]3O)O[C@H](CO)[C@H]2O)[C@H](O)[C@@H](O)[C@@H]1O` (stereo partly shown) has a ΔG of -24.8 kcal/mol (Bacteroides uniformis; binding, ITC; pH 7.0, 25 °C, middle domain).
`CC[C@H]1CN2CCc3cc(OC)c(OC)cc3[C@@H]2C[C@@H]1C[C@H]1NCCc2cc(OC)c(OC)cc21` gave an EC50 of 1.08 µM (Toxoplasma gondii; bradyzoite growth; glutamine-induced bradyzoites, glucose-free medium).
`CC(=Nc1ccc(N=Cc2cnccn2)cc1)N(C)C` has a worm count of 0 (Necator americanus; infected hamsters, small intestine; oral, 50 mg/kg single, 24 h).
`OC(Cn1cncn1)(Cn1cncn1)c1ccc(F)cc1F` gave an MIC of 25 µM (≈ 7.66 µg/mL) (Cryptococcus neoformans; H99, RPMI 1640; 24 h, 35 °C).
`C=CC[C@@H]1c2ccc(OC)c(OC)c2CN2CCc3cc4c(cc3[C@H]12)OCO4` — result for “relative wound size”: 0.46 and 0.26 and 0.79 and 0.23 and 0.39 and 0.4 (Staphylococcus aureus; P2rx7+/+ mice, skin wound infection; dose not given, day 5; reference: day 0).
`Cc1cn([C@H]2C[C@H](N=[N+]=[N-])[C@@H](CO)O2)c(=O)[nH]c1=O` has an EC50 of 0.004 ± 0.0003 µM (HIV-1; virus-induced cytopathicity, XTT; CEM-SS cells, RF; 6 days).
The biofilm formation of `O=C(C#Cc1ccc(F)c(F)c1)c1ccccc1Cl` is reported as 50% (Pseudomonas aeruginosa; static biofilm; PA14; 10 µM, 24 h; reference: DMSO).
`CCc1nc(N)nc(N)c1-c1ccc(Cl)cc1` has a parasite survival of 98.9% (Toxoplasma gondii; [3H]uracil incorporation; human fibroblasts, RH wild type; 5 µM).
`Cn1cnc([N+](=O)[O-])c1Sc1ccccc1C(=O)NCCn1ccc(=O)c2cc3c(cc21)OCO3` gave an EC50 of 19.4 ± 14.9 µM (HIV-1; viral replication; human PBMC, 92RW009).
The biofilm formation of `Cc1ccccc1C(=O)C#Cc1ccc(F)c(F)c1` is reported as 71% (Pseudomonas aeruginosa; static biofilm; PA14; 10 µM, 24 h, static; reference: DMSO).
`CC(C)(C)c1cc(/C=C(\C#N)C(N)=S)cc(C(C)(C)C)c1O` has an EC50 of 3.13 µM (Toxoplasma gondii; parasite growth; HFF, bradyzoite, glutamine-induced).
`O=C(O)CCC(=O)OCCN(Cc1ccc(Oc2ccc([N+](=O)[O-])cc2)cc1)C(=O)C(Cl)Cl` has an IC50 of 23.8 ± 6.97 µM (Leishmania martiniquensis; parasite growth; promastigotes; 72 h).
`O=C(c1ccc(Nc2nccc(-c3cc4ccccc4s3)n2)cc1)N1CCC(N2CCCC2)CC1` has an EC90 of 15 µM (Toxoplasma gondii; parasite growth; HFF, bradyzoite, glutamine-induced).
The FICI of `N=C(N)c1ccc(OCc2cc(Br)cc(COc3ccc(C(=N)N)cc3)c2)cc1` is reported as ≤ 0.063 (Escherichia coli; checkerboard; W3110; unit not given, added: rifampicin; lower = stronger synergy).
`NS(=O)(=O)C#Cc1ccccc1` gave an EC90 of 9.52 µM (Toxoplasma gondii; parasite growth; HFF, bradyzoite, glutamine-induced).
With `CC(=O)NC[C@H]1CN(c2ccc(N3CCOCC3)c(F)c2)C(=O)O1` the MIC50 was 1 µg/mL (Streptococcus pneumoniae; penicillin-resistant, 10 isolates; pH 5.5).
With `Nc1nc(-c2ccccc2)nc2[nH]nc(Nc3ccc(C(F)(F)F)cc3)c12` the clinical score was 0.1 (coxsackievirus B3; 31-1-93, NMRI mice, CVB3 chronic myocarditis; oral, 100 mg/kg twice daily, day 10, dosed days 0 to 6, score scale 0 to 7; direction not given).
For `OC[C@H]1O[C@@H](O[C@@H]2[C@@H](O)[C@H](O[C@H]3[C@H](O)[C@@H](CO)OC(O)[C@@H]3O)O[C@H](CO)[C@H]2O)[C@H](O)[C@@H](O)[C@@H]1O` (stereo partly shown), the ΔH was -22.5 kcal/mol (Bacteroides uniformis; binding, ITC; pH 7.0, 25 °C, distal domain).
The mRNA level of `COc1cc(C#CC(=O)CC(C)C)ccc1O` is reported as 57% (Pseudomonas aeruginosa; RT-qPCR, measured: rhlA; biofilm cells; 10 µM, 24 h; reference: untreated).
The inhibition of `C[C@H]1[C@H](OC(=O)CCC(=O)O)O[C@@H]2O[C@@]3(C)CC[C@H]4[C@H](C)CC[C@@H]1[C@@]24OO3` is reported as 59.2% (hepatitis E virus; viral replication, Renilla luciferase replicon; S10-3 replicon, genotype 1; 23.43 µM, 48 h).
`OC[C@H]1O[C@@H](O[C@@H]2[C@@H](O)[C@H](O[C@@H]3[C@@H](O)[C@H](O[C@H]4[C@H](O)[C@@H](CO)OC(O)[C@@H]4O)O[C@H](CO)[C@H]3O)O[C@H](CO)[C@H]2O)[C@H](O)[C@@H](O)[C@@H]1O` (stereo partly shown) gave a ΔG of -24.7 kcal/mol (Bacteroides uniformis; binding, ITC; pH 7.0, 25 °C, distal domain).
`[H]/N=C(/NCCCCC)N/N=C/c1c[nH]c2ccc(OC)cc12` has an EC50 of 4.98 µM (Toxoplasma gondii; parasite growth; HFF, bradyzoite, alkaline-induced).
With `COc1cc(C#CC(=O)C2CCCCC2)ccc1O` the biofilm formation was 42% (Pseudomonas aeruginosa; static biofilm; PA14; 10 µM, 24 h; reference: DMSO).
For `CO[C@H]1/C=C/O[C@@]2(C)Oc3c(C)c(O)c4c(c3C2=O)C2=NC3(CCN(CC(C)C)CC3)NC2=C(NC(=O)/C(C)=C\C=C\[C@H](C)[C@H](O)[C@@H](C)[C@@H](O)[C@@H](C)[C@H](OC(C)=O)[C@@H]1C)C4=O`, the IC90 was 2.57 µM (Mycobacteroides abscessus; bacterial growth; subsp. abscessus ATCC 19977).
With `CCCC(=O)OCSc1ccccc1C(=O)NCCOc1ccnc2ccc(Cl)cc12` the EC50 was > 46.3 µM (HIV-1; virus-induced cytopathic effect, inhibitor, XTT; CEM-SS, RF; 6 days).
`Clc1ccc(C(c2ccc(Cl)cc2)n2cc[n+](CC(OCc3ccc(Cl)cc3Cl)c3ccc(Cl)cc3Cl)c2)cc1` (stereo not shown) has an EC90 of 7.56 µM (Toxoplasma gondii; parasite growth; HFF, bradyzoite, glutamine-induced).
For `COc1cc(C#CC(O)c2ccccc2OC)ccc1O` (stereo not shown), the biofilm formation was 61% (Pseudomonas aeruginosa; static biofilm; PA14; 10 µM, 24 h, static; reference: DMSO).
`CC(C)n1ncc2c(C(=O)NCC3(C)CNC3)cc(C3CC3)nc21` has a plaque area of 105% and 89.5% (Enterovirus D68; viral replication; RD, US/MO/14-18947; 0.03 µM; reference: untreated).
For `Cc1cc(OC(C)C)ccc1C(=O)C(C)(C)NC(=O)c1sccc1C`, the inhibition was 30.1 ± 3.8% (Botrytis cinerea; conidial germination; B05.10; 0.3 µg/mL).
The EC50 of `COc1ccc(Nc2cnnc3ccc(-c4ccc(N5CCN(C)CC5)cc4)cc23)nc1` is reported as 1.6 µM (Leishmania donovani; B10R cells).
`COc1cc(C#CC(=O)c2ccccc2)ccc1O` gave a mRNA level of 16% (Pseudomonas aeruginosa; RT-qPCR, measured: rhlA; biofilm cells; 10 µM, 24 h; reference: untreated).
With `OC[C@H]1O[C@@H](O[C@@H]2[C@@H](O)[C@H](O[C@@H]3[C@@H](O)[C@H](O[C@@H]4[C@@H](O)[C@H](O[C@@H]5[C@@H](O)[C@H](O[C@H]6[C@H](O)[C@@H](CO)OC(O)[C@@H]6O)O[C@H](CO)[C@H]5O)O[C@H](CO)[C@H]4O)O[C@H](CO)[C@H]3O)O[C@H](CO)[C@H]2O)[C@H](O)[C@@H](O)[C@@H]1O` (stereo partly shown) the ΔG was -26.3 kcal/mol (Bacteroides uniformis; binding, ITC; pH 7.0, 25 °C, distal domain).
For `OC(Cn1cncn1)(Cn1cncn1)c1ccc(F)cc1F`, the MIC50 was 100 µM (Nakaseomyces glabratus; EUCAST; RTT_199.3; 48 h).
For `Cc1ccc(C(=O)N(CCCN)[C@@H](c2oc3cc(Cl)ccc3c(=O)c2Cc2ccccc2)C(C)C)cc1`, the EC50 was 6.6 µM (Toxoplasma gondii; parasite growth; HFF, bradyzoite, alkaline-induced).
For `Cc1ncc([N+](=O)[O-])n1CCO`, cell morphology read “no effect” (Clostridioides difficile; scanning electron microscopy; ATCC 43255; 8 x MIC, 24 h).
With `COc1cc(C#C[C@@H](O)CC(C)C)ccc1O` the biofilm formation was 69% (Pseudomonas aeruginosa; static biofilm; PA14; 10 µM, 24 h, static; reference: DMSO).
The IC50 of `OC[C@H]1O[C@@H](Oc2cc3c(O[C@@H]4O[C@H](CO)[C@@H](O)[C@H](O)[C@H]4O)cc(O)cc3[o+]c2-c2ccc(O)c(O)c2)[C@H](O)[C@@H](O)[C@@H]1O` is reported as > 100 µM (HIV-1; viral infection; TZM-bl, BaL (CCR5-tropic); 48 h).
